Measured values pooled from the literature.
Numbered parts are unrelated; each lists some results of a single study.
Chain of UniProt Q9C966 (whole entry, looked up): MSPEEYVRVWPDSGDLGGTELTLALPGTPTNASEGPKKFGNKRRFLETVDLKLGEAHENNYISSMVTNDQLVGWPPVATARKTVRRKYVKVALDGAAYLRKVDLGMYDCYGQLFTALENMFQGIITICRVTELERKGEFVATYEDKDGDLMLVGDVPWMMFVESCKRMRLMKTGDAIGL
Chain of UniProt Q38831 (whole entry, looked up): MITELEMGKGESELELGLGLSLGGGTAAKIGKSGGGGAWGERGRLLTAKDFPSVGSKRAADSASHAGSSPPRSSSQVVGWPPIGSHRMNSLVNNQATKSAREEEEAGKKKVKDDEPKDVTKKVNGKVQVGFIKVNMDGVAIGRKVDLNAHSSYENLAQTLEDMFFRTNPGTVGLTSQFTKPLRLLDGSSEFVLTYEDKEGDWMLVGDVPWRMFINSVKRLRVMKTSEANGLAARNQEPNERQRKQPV
Chain of UniProt Q38829 (whole entry, looked up): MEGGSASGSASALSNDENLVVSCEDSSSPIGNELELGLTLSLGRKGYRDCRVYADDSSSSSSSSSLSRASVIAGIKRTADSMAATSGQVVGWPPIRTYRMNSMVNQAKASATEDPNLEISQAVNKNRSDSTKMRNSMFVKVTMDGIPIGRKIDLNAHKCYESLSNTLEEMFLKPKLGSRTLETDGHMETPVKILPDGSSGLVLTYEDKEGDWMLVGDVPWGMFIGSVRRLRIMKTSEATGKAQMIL
Chain of UniProt Q9SKN5 (whole entry, looked up): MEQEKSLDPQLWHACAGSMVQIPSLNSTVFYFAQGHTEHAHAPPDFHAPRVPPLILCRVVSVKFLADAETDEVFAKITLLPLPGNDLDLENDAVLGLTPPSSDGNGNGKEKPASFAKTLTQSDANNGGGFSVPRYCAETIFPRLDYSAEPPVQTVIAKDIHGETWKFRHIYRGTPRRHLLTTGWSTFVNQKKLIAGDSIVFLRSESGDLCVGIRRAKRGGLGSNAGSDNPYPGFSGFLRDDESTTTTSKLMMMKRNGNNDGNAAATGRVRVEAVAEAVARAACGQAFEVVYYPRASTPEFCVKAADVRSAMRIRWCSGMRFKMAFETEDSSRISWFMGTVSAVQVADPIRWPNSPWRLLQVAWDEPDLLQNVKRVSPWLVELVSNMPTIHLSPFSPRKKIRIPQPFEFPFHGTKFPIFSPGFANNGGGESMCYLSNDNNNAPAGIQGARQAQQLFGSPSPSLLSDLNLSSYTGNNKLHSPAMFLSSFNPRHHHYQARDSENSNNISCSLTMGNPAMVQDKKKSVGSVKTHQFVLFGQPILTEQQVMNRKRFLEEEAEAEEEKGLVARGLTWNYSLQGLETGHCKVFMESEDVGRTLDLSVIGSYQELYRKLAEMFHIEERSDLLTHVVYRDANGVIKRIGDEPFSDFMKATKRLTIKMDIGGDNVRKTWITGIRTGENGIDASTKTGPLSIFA
Chain of UniProt Q9ZTX8 (whole entry, looked up): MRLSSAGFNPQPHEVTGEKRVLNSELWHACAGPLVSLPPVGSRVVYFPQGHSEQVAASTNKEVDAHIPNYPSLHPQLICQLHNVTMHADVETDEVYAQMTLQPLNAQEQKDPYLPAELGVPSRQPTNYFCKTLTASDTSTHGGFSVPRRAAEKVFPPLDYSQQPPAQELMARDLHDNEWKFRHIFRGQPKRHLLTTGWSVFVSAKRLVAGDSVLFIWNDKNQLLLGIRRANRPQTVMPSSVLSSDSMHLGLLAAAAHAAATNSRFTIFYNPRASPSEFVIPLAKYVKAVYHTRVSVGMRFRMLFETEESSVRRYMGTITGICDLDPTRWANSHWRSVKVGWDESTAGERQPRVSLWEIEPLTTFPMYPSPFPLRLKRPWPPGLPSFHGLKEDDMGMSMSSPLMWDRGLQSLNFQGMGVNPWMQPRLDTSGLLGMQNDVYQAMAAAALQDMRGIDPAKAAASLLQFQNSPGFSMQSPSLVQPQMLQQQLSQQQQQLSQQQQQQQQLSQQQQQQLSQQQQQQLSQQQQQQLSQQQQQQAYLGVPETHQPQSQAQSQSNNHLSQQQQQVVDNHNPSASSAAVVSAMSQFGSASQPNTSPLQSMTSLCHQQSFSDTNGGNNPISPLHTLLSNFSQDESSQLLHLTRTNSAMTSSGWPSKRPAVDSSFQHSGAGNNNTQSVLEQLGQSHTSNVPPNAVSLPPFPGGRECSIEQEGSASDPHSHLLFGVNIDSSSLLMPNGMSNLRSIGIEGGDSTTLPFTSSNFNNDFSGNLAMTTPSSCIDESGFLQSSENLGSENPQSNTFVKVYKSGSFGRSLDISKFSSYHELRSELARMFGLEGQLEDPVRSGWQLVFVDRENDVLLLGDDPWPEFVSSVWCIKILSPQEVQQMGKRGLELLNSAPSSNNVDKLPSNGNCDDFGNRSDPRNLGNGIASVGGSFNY

Study 1 — method: RNAcompete; form: RNA; medium: in vitro; concentration: 20 nM; setting: 7-mer, probes averaged, single round; relative to: mean of 7-mers; reading: higher = stronger binding; measurement: 7-mer Z-score
Target: PABPC1L2, full length, GST fusion (mouse, UniProt A0ABA7IW68)
Residues (chain): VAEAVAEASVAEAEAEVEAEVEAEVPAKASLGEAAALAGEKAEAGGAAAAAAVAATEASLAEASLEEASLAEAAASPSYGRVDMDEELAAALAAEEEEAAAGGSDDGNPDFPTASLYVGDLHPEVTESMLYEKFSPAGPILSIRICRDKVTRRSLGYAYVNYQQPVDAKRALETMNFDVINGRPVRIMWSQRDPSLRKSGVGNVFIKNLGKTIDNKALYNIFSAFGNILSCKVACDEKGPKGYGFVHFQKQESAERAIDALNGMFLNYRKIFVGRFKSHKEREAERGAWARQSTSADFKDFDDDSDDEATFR
UAAGAAU: 0.0152
GAAAUUC: 0.273
GUAAUCG: -0.121
GAGGUGU: 0.0787
UUAUUAA: -0.0863
CGAGUAA: 0.0388
GUCCCGC: -0.353
AAUCUGU: -0.0283

Study 2 — method: protein-binding microarray; form: double-stranded DNA, one strand shown; medium: in vitro; concentration: 2540 nM top; setting: 60-bp whole probe; together with: salmon DNA 0.4 mg/ml; relative to: random background probes; reading: higher = stronger binding; measurement: fitted relative affinity; all sequences stand within: GCCTAGCAC … GTCTTGATTCGCTTGACGCTGCTG
Target: Interferon regulatory factor 3, full length, phosphomimetic (IRF3, Homo sapiens, UniProt Q14653, residues 1-427, S386D/S396D/S398D/S402D/T404D/S405D)
Chain of UniProt Q14653 (whole entry, unmodified, looked up): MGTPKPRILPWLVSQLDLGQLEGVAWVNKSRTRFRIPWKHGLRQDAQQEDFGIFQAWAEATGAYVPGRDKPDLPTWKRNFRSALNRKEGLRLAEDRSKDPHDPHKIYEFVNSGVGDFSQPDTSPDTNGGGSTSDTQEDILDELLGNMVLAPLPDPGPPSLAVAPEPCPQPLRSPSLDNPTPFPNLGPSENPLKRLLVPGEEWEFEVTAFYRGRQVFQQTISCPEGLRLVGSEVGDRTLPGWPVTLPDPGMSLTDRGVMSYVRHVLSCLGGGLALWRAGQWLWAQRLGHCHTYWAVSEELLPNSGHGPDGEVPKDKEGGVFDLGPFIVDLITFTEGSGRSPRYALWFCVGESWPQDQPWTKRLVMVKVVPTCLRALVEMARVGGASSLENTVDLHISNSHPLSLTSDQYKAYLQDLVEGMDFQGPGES
TTAGGACTGCTTTTACTTTAGTGCTAG: 0.316 z-score
AGTGTTATAATATTATTGCAGTGCTAG: 0.345 z-score
GACGGTATCGCGTATCGGGACGTGCTA: 0.67 z-score
GACGGTTTAGGTATCGGGACGTGCTAG: 1.48 z-score
TCAATTTTCTCTGTTCTACTGTGCTAG: 1.14 z-score
TTAGATGTCGGGTTTCGATTAGTGCTA: 1.83 z-score
TTACGTCTCGGTATCGGTTAGTGCTAG: 2.59 z-score
AATTAGGTTTCACTTTCCAAAGTGCTA: 8.13 z-score

Study 3 — Sequence: B1 (IAA9); method: two-hybrid; reading: higher = firmer interaction; measurement: positive tests
B1: IAA9 (Arabidopsis thaliana, UniProt Q38827); chain MSPEEELQSNVSVASSSPTSNCISRNTLGGLKEHNYLGLSDCSSVGSSTLSPLAEDDKATISLKATELTLGLPGSQSPARDTELNLLSPAKLDEKPFFPLLPSKDEICSSSQKNNASGNKRGFSDTMDQFAEAKSSVYTEKNWMFPEAAATQSVTKKDVPQNIPKGQSSTTNNSSSPPAAKAQIVGWPPVRSYRKNTLATTCKNSDEVDGRPGSGALFVKVSMDGAPYLRKVDLRSYTNYGELSSALEKMFTTFTLGQCGSNGAAGKDMLSETKLKDLLNGKDYVLTYEDKDGDWMLVGDVPWEMFIDVCKKLKIMKGCDAIGLAAAPRAMEKSKMRA
ARF6 790-935 (Arabidopsis thaliana, UniProt Q9ZTX8); relative to: out of 2 tests: 2
IAA13 (Arabidopsis thaliana, UniProt Q38831); relative to: out of 2 tests: 2
IAA15 (Arabidopsis thaliana, UniProt Q9C966); relative to: out of 2 tests: 2
ARF10 575-693 (Arabidopsis thaliana, UniProt Q9SKN5); relative to: out of 4 tests: 0
IAA11 (Arabidopsis thaliana, UniProt Q38829); weak activation fusion; relative to: out of 2 tests: 2

Single results of other studies
KLIDVSKCI  binding (HLA class I histocompatibility antigen, A alpha chain, allele A*25:01 (Homo sapiens, UniProt P04439); peptide-MHC binding; peptide; concentration not given): inactive

A few entries again (study 2):
TTACGTCTCGGTATCGGTTAGTGCTAG: 2.59 z-score
